{"data": "Earlier results, collected from citations in different studies", "sequence of UniProt Q9Y6M4 (whole entry, looked up)": "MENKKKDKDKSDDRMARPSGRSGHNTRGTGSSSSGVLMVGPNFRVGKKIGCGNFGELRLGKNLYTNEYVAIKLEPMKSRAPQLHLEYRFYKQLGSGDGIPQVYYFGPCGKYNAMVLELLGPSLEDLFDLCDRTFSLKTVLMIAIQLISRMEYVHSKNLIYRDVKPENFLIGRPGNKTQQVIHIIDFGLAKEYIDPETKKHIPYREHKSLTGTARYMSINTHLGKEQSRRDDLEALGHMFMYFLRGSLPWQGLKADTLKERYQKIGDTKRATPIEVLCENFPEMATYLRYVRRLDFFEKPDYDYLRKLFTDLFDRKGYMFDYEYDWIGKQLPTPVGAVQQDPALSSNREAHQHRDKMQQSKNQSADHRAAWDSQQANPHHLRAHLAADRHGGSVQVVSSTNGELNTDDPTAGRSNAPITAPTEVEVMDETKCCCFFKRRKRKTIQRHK", "sequence of UniProt P06536 (whole entry, looked up)": "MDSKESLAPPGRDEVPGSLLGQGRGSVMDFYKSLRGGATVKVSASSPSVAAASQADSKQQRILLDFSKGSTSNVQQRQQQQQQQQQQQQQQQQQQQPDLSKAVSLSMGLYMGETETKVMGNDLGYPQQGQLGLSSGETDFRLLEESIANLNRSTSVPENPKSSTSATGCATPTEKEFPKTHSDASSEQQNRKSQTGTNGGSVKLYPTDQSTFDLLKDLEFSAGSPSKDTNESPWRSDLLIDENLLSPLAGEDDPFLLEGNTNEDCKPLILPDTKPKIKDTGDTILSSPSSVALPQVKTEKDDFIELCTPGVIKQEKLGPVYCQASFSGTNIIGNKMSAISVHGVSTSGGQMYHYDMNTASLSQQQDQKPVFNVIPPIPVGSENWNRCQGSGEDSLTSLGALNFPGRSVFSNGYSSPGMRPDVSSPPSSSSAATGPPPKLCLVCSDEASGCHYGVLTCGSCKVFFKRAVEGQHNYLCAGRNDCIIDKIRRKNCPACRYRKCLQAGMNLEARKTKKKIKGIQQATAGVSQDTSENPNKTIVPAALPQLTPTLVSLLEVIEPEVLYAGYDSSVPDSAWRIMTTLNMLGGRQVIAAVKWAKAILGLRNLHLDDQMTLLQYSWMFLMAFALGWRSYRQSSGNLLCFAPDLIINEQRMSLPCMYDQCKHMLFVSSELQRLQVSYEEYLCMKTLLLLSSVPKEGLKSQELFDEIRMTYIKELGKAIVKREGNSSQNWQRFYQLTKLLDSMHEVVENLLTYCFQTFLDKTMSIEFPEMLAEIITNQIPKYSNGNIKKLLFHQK"}
{"SMILES": "Nc1cc(C(F)(F)F)c(-c2nc(N3CCOCC3)nc(N3CCOCC3)n2)cn1", "tested on": "CSNK1G3 (Homo sapiens, UniProt Q9Y6M4)", "test": "enzyme activity", "setting": "10 µM", "how to read": "baseline: untreated", "quantity": "remaining activity", "value": "100%"}
{"SMILES": "CC(=O)Nc1ccc(O)cc1", "tested on": "UGT1A9", "test": "substrate", "quantity": "Km", "value": "9.2 mM"}
{"SMILES": "CC1(C)S[C@@H]2[C@H](NC(=O)[C@H](N)c3ccccc3)C(=O)N2[C@H]1C(=O)O", "tested on": "Pseudomonas aeruginosa", "test system": "clinical isolate RKI-No_693/15", "quantity": "MIC", "value": "> 16 mg/L"}
{"SMILES": "C=CCC(CCC)C(=O)O (centres unmarked)", "tested on": "human neural embryonic cells", "test": "cell viability", "setting": "unbound medium concentration", "quantity": "EC10", "value": "121 µM"}
{"SMILES": "CN(C)C(=O)c1cc2cnc(Nc3ccc(N4CCNCC4)cn3)nc2n1C1CCCC1", "test": "refers to: nausea", "test system": "advanced solid tumour or lymphoma patients", "setting": "dose not given, continuous dosing", "how to read": "baseline: patients", "quantity": "adverse event incidence", "value": "63.2%"}
{"SMILES": "CC(=O)O[C@H]1C(=O)[C@@]2(C)[C@H]([C@H](OC(=O)c3ccccc3)[C@]3(O)C[C@H](OC(=O)[C@H](O)[C@@H](NC(=O)c4ccccc4)c4ccccc4)C(C)=C1C3(C)C)[C@]1(OC(C)=O)CO[C@@H]1C[C@@H]2O", "tested on": "DLD-1 (Pgp+ drug-resistant)", "test": "cytotoxicity", "quantity": "IC50", "value": "0.364 µM"}
{"SMILES": "COCCc1ccc(OCC(O)CNC(C)C)cc1 (centres unmarked)", "test system": "human fasted", "setting": "200 mg multiple doses, day 5, mean", "quantity": "AUC(0-24 h)", "value": "1.54 µg·h/mL"}
{"SMILES": "CCNS(=O)(=O)C(F)(F)C(F)(F)C(F)(F)C(F)(F)C(F)(F)C(F)(F)C(F)(F)C(F)(F)F", "tested on": "CYP3A4", "setting": "concentration not given", "quantity": "activity", "value": "inactive"}
{"SMILES": "CC[C@H]1OC(=O)[C@H](C)[C@@H](O[C@H]2C[C@@](C)(OC)[C@@H](O)[C@H](C)O2)[C@H](C)[C@@H](O[C@@H]2O[C@H](C)C[C@H](N(C)C)[C@H]2O)[C@](C)(OC)C[C@@H](C)C(=O)[C@H](C)[C@@H](O)[C@]1(C)O", "tested on": "SLCO1B1", "test": "inhibitor", "setting": "Simcyp compound file", "quantity": "Ki", "value": "0.35 µM"}
{"SMILES": "CNC(C)C1CCC(N)C(OC2C(N)CC(N)C(OC3OCC(C)(O)C(NC)C3O)C2O)O1 (centres unmarked)", "tested on": "Pseudomonas aeruginosa", "test system": "clinical isolate RKI-No_216/16", "quantity": "MIC", "value": "≤ 0.5 mg/L"}
{"SMILES": "CO[C@]1(C(=O)N[C@@H](C)c2ccc(-n3cc(F)cn3)nc2)CC[C@H](c2nc(C)cc(Nc3cc(C)[nH]n3)n2)CC1", "tested on": "BCRP", "test system": "C2BBe1", "setting": "together with: fumitremorgin C", "quantity": "efflux ratio change", "value": "no effect"}
{"SMILES": "C[C@H]1COCCN1c1nc(-c2cnc(N)cc2C(F)F)nc(N2CCOCC2)n1", "tested on": "TT", "quantity": "GI50", "value": "0.576 µM"}
{"SMILES": "CCCCCC(CCC)C(=O)O (centres unmarked)", "tested on": "mouse D3 embryonic stem cells", "test": "cell differentiation, inhibitor", "setting": "unbound medium concentration", "quantity": "IC10", "value": "116 µM"}
{"SMILES": "C=CC[C@@H]1/C=C(\\C)C[C@H](C)C[C@H](OC)[C@H]2O[C@@](O)(C(=O)C(=O)N3CCCC[C@H]3C(=O)O[C@H](/C(C)=C/[C@@H]3CC[C@@H](O)[C@H](OC)C3)[C@H](C)[C@@H](O)CC1=O)[C@H](C)C[C@@H]2OC", "tested on": "human CYP3A5 recombinant", "test": "substrate", "quantity": "intrinsic clearance", "value": "81 µL/min/pmol"}
{"SMILES": "Cc1cc(-c2nccc3c2ccn3CC(=O)Nc2ccc(-c3cnccn3)cn2)ccn1", "tested on": "bacteria", "setting": "concentration not given, genotoxicity", "quantity": "Ames test result", "value": "negative"}
{"SMILES": "CCC(=O)O[C@]1(C(=O)SCF)[C@H](C)C[C@H]2[C@@H]3C[C@H](F)C4=CC(=O)C=C[C@]4(C)[C@@]3(F)[C@@H](O)C[C@@]21C", "tested on": "Nr3c1 (Rattus norvegicus, UniProt P06536)", "test system": "rat, spleen", "setting": "intravenous, 90 nmol/kg, 0.4667 (unit not given)", "quantity": "receptor occupancy", "value": "84.5%"}
{"SMILES": "CNCc1cc(-c2ccccc2F)n(S(=O)(=O)c2cccnc2)c1", "test system": "human", "setting": "20 mg, multiple dose", "quantity": "Tmax", "value": "1.07 h"}
{"note": "For quick reference, copied from above:"}
{"SMILES": "Nc1cc(C(F)(F)F)c(-c2nc(N3CCOCC3)nc(N3CCOCC3)n2)cn1", "tested on": "CSNK1G3 (Homo sapiens, UniProt Q9Y6M4)", "test": "enzyme activity", "setting": "10 µM", "how to read": "baseline: untreated", "quantity": "remaining activity", "value": "100%"}
{"SMILES": "CC(=O)Nc1ccc(O)cc1", "tested on": "UGT1A9", "test": "substrate", "quantity": "Km", "value": "9.2 mM"}
{"SMILES": "CC1(C)S[C@@H]2[C@H](NC(=O)[C@H](N)c3ccccc3)C(=O)N2[C@H]1C(=O)O", "tested on": "Pseudomonas aeruginosa", "test system": "clinical isolate RKI-No_693/15", "quantity": "MIC", "value": "> 16 mg/L"}
